Measurements from different studies.
Each line is one published result; not all experiments were run side by side. Numbers after ± are the reported error.

`N=C(NCCCO)NCCCSC[C@H]1O[C@@H](n2cnc3c(NCCCc4ccccc4)ncnc32)[C@H](O)[C@@H]1O` gave an inhibition of less than 10% (CamA DNA adenine methyltransferase (Clostridioides difficile); enzyme activity, inhibitor, MTase-Glo luminescence (SAH); 10 µM, 3 min, pH 7.5, 22 °C, with: SAM 40 µM).
For `O=C(O)CSc1nc(Cl)cc(Nc2cccc(OCCc3ccccc3)c2)n1`, coactivator recruitment read “decreased” (PPARγ LBD, human; inhibitor, HTRF, refers to: CBP peptide; concentration not given, with: pioglitazone).
`O=C(O)c1ccc(O)cc1` — result for “z-scored log2 fold change”: -0.134 (binding, equilibrium dialysis LC-MS; 5 µM, thermostabilized A2AR-BRIL construct; baseline: no-protein control, direction not given).
`CCN1CCN(Cc2ccc(C(=O)Nc3ccc(C)c(Oc4ccc5c(c4)CC(=O)N5)c3)cc2C(F)(F)F)CC1` has a remaining binding of 81% (FLT3 ITD; KINOMEscan; 1 µM; baseline: control).
`C=CC(=O)Nc1cc2c(Nc3ccc(F)c(Cl)c3)ncnc2cc1OCCCN1CCOCC1` gave an inhibition of 86.2% (NLRP3 inflammasome (mouse); mouse BMDM; 10 µM).
The inhibition of `N=C(NCCCN)NCCCSC[C@H]1O[C@@H](n2cnc3c(NCCCc4ccccc4)ncnc32)[C@H](O)[C@@H]1O` is reported as less than 10% (CamA DNA adenine methyltransferase (Clostridioides difficile); enzyme activity, inhibitor, MTase-Glo luminescence (SAH); 10 µM, 3 min, pH 7.5, 22 °C, with: SAM 40 µM).
For `CC1(C)CNc2cc(NC(=O)c3cccnc3NCc3ccncc3)ccc21`, the inhibition was 38.8% (NLRP3 inflammasome (mouse); mouse BMDM; 10 µM).
`CC(=O)NCC(=O)O`: “z-scored log2 fold change” 0.354 (binding, equilibrium dialysis LC-MS; 5 µM, thermostabilized A2AR-BRIL construct; baseline: no-protein control, direction not given).
`CCN=C1C=CC(=C(c2ccc(N(CC)CC)cc2)c2ccc(N(CC)CC)cc2)c2ccccc21.Cl`: “AUC agonist score” 0 (androgen receptor pathway; agonist; concentration not given; direction not given).
`CNC(=O)[C@@H]1CC[C@@H](n2c(-c3ccc4cnccc4c3)nc3ccc(C(=O)NCc4cccc(C(N)=O)c4)cc32)C1` — result for “percent of control”: 100% (human FLT3 ITD/D835V; binding, KINOMEscan; 1000 nM; lower = stronger binding).
`Cn1cnc2c(F)c(Nc3ccc(Br)cc3F)c(C(=O)NOCCO)cc21` has an inhibition of -12% (NLRP3 inflammasome (mouse); mouse BMDM; 10 µM).
Under “AUC antagonist score”, `C#C[C@]1(O)CC[C@H]2[C@@H]3CCc4cc(O)ccc4[C@H]3CC[C@@]21C` is recorded as 1 (androgen receptor pathway; antagonist; concentration not given; direction not given).
Under “log2 fold change”, `Oc1ccccc1-c1n[nH]cc1-c1ccnc2ccccc12` is recorded as 0.49 (TOR1 (Candida albicans); kinase binding, MIB/MS competition; Candida albicans lysate; 1 µM; baseline: DMSO).
Under “log2 fold change”, `N#Cc1ccc2c(-c3ccncc3)c(-c3ccc(F)cc3)nn2c1` is recorded as 0.231 (orf19.3456 kinase Candida albicans; MIB/MS competition binding; Candida albicans cell lysate; 100 nM; baseline: DMSO, lower = stronger binding).
The Kd of `CC(C)C[C@@H]1NC(=O)[C@@H]2CSSC[C@@H](C(=O)NCC(N)=O)NC(=O)[C@H](Cc3ccccc3)NC(=O)CNC(=O)[C@H](CC(N)=O)NC(=O)[C@@H]3CCCN3C(=O)CNC(=O)[C@@H]3CSSC[C@H](NC(=O)[C@H]([C@@H](C)O)NC(=O)[C@H](CC(C)C)NC(=O)[C@@H]4CCCN4C(=O)[C@@H]4CCCN4C(=O)[C@H](CC(N)=O)NC(=O)[C@H](CC(=O)O)NC(=O)CNC(=O)[C@H](CCCNC(=N)N)NC(=O)[C@@H]4CCCN4C(=O)[C@H](CCCNC(=N)N)NC(=O)[C@@H]4CCCN4C(=O)[C@@H](NC(=O)CNC(=O)c4ccc(-c5c6ccc(=N)c(S(=O)(=O)O)c-6oc6c(S(=O)(=O)O)c(N)ccc56)c(C(=O)O)c4)CSSC[C@H](NC(=O)CNC(=O)[C@H](C)NC1=O)C(=O)N[C@@H](C(C)C)C(=O)N3)C(=O)N[C@@H](CO)C(=O)N[C@@H](CCC(N)=O)C(=O)N[C@@H](CC(=O)O)C(=O)N[C@@H](CO)C(=O)N[C@@H](CC(=O)O)C(=O)N2` is reported as 0.00036 ± 5e-05 µM (integrin, human; binding, flow cytometry; U-87 MG; 10 h, 4 °C).
`CC(Nc1nc(N2CCCC2)nc2ccccc12)c1ccccc1` (centres unmarked) — result for “cells with nuclear reporter”: 87.5% (importin α/β1; cMyc nuclear import, high content imaging; HeLa Kyoto reporter; 0.5 µM, 2 h).
`CCCN(CCC)CCc1cccc2c1CC(=O)N2` gave a lowest IC30 of greater than 30 µM (seizure ion channel panel; ion current, inhibitor; lowest across channels).
For `CC1(C)NC(=O)N(c2ccc([N+](=O)[O-])c(C(F)(F)F)c2)C1=O`, “AUC agonist score” read 0 (androgen receptor pathway; agonist; concentration not given; direction not given).
`CN[C@H]1CC[C@@H](c2ccc(Cl)c(Cl)c2)c2ccccc21` gave a lowest IC30 of 0.955 µM (seizure ion channel panel; ion current, inhibitor; lowest across channels).
`N=C(NCCCSC[C@H]1O[C@@H](n2cnc3c(NCCCc4ccccc4)ncnc32)[C@H](O)[C@@H]1O)NC1CCC1` has an inhibition of less than 10% (CamA DNA adenine methyltransferase (Clostridioides difficile); enzyme activity, inhibitor, MTase-Glo luminescence (SAH); 10 µM, 3 min, pH 7.5, 22 °C, with: SAM 40 µM).
`c1ccc(-c2n[nH]cc2-c2ccnc3ccccc23)nc1`: “log2 fold change” 1.32 (orf19.3456 kinase Candida albicans; MIB/MS competition binding; Candida albicans cell lysate; 1 µM; baseline: DMSO, lower = stronger binding).
`O=C(Nc1c[nH]nc1C(=O)NC1CCNCC1)c1cc(F)cc(F)c1` gave a remaining binding of 89% (human FLT3 ITD D835V; scanMAX; 1 µM; baseline: control).
Under “log2 fold change”, `Cc1n[nH]c2ccc(-c3cc(OC[C@@H](N)Cc4ccccc4)cnc3-c3ccoc3)cc12` is recorded as -0.791 (orf19.3456 kinase Candida albicans; MIB/MS competition binding; Candida albicans cell lysate; 1 µM; baseline: DMSO, lower = stronger binding).
With `CN1C[C@H](COc2nccc3c(NCc4ccco4)cc(Cl)nc23)OC1=O` the enzyme activity was 1.87 fold (human alpha-galactosidase A; activator; Fabry disease iPSC-cardiomyocytes; 10 µM; baseline: untreated).
`c1coc(-c2n[nH]cc2-c2ccnc3ccccc23)c1` — result for “log2 fold change”: -0.18 (TOR1 (Candida albicans); kinase binding, MIB/MS competition; Candida albicans lysate; 1 µM; baseline: DMSO).
`N#CC[C@H](C1CCCC1)n1cc(-c2ncnc3[nH]ccc23)cn1` has an inhibition of 23.5% (NLRP3 inflammasome (mouse); mouse BMDM; 10 µM).
For `O=C1NC(=O)/C(=C/c2ccc(OCCNc3nc4c(cnn4C4CCCC4)c(=O)[nH]3)c(F)c2)S1`, the selectivity ratio was 6 fold (PDE1B, PDE9; baseline: PDE9 IC50 over PDE1B IC50).
The inhibition of `Nc1cc(C(F)(F)F)c(-c2nc(N3CCOCC3)nc(N3CCOCC3)n2)cn1` is reported as 39.5% (NLRP3 inflammasome (mouse); mouse BMDM; 10 µM).
Under “log2 fold change”, `N#Cc1ccn2c(-c3ccncc3)c(-c3ccc(F)cc3)nc2c1` is recorded as 0.157 (orf19.3456 kinase Candida albicans; MIB/MS competition binding; Candida albicans cell lysate; 1 µM; baseline: DMSO, lower = stronger binding).
With `Cc1ccc(Nc2nccc(N(C)c3ccc4c(C)n(C)nc4c3)n2)cc1S(N)(=O)=O` the inhibition was 16.5% (NLRP3 inflammasome (mouse); mouse BMDM; 10 µM).
`Nc1ncc2c(n1)-c1c([nH]c3ccc(C#CC4CC4)cc13)CCCC2` has a remaining binding of 100% (FLT3 ITD; scanMAX; 1 µM; baseline: control).
For `C=CC(=O)N1CCC(Oc2cc3c(Nc4ccc(Cl)c(Cl)c4F)ncnc3cc2OC)CC1`, the inhibition was 90.5% (NLRP3 inflammasome (mouse); mouse BMDM; 10 µM).
For `CCCN1CCCC[C@H]1C(=O)Nc1c(C)cccc1C`, the lowest IC30 was greater than 30 µM (seizure ion channel panel; ion current, inhibitor; lowest across channels).
The inhibition of `FC(F)(F)c1ccc(/C=C/c2nc(COc3ccc(CCCCn4ccnn4)cc3)co2)cc1` is reported as -52.9% (NLRP3 inflammasome (mouse); mouse BMDM; 10 µM).
With `CC(C)NCC(O)COc1cccc2ccccc12` (centres unmarked) the lowest IC30 was 5.24 µM (seizure ion channel panel; ion current, inhibitor; lowest across channels).

A few entries again:
`CCN=C1C=CC(=C(c2ccc(N(CC)CC)cc2)c2ccc(N(CC)CC)cc2)c2ccccc21.Cl`: “AUC agonist score” 0 (androgen receptor pathway; agonist; concentration not given; direction not given).
For `C=CC(=O)N1CCC(Oc2cc3c(Nc4ccc(Cl)c(Cl)c4F)ncnc3cc2OC)CC1`, the inhibition was 90.5% (NLRP3 inflammasome (mouse); mouse BMDM; 10 µM).
`CN[C@H]1CC[C@@H](c2ccc(Cl)c(Cl)c2)c2ccccc21` gave a lowest IC30 of 0.955 µM (seizure ion channel panel; ion current, inhibitor; lowest across channels).
